# Assay results gathered from unrelated publications.
# A part holds a random share of what one study measured. Changes are numbered by the printed parent chain.

# Series 1 — target: CCNE2, cyclin fold, Cln2 fusion (human); technique: yeast growth competition, sequencing; sample: yeast; setting: weak parent motif; relative to: not given; direction: higher = stronger binding
# Starting sequence: PKN2 docking peptide (human); DSTVTKLDFDLEP; partner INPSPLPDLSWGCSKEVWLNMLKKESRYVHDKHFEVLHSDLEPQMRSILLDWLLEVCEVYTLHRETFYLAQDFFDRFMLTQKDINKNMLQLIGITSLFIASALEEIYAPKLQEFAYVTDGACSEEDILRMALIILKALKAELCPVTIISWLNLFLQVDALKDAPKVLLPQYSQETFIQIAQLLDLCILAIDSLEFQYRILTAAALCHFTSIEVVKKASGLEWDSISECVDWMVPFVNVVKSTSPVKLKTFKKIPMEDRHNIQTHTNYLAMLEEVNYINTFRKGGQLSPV
Change,normalised enrichment score
P13A,-0.0506
E12A,-0.199
L11A,0.0483
D10A,-0.286
S2A,-0.119
T5A,-0.223

# Series 2 — technique: aptamer microarray, sandwich; molecule type: DNA with 2'F-ANA; sample: in vitro; tested at: 200 nM; added: Cy3 exosite-II aptamer, 400 nM; direction: higher = stronger binding; sequence: GGTTGGTGTGGTTGG
# Target: Prothrombin, mature alpha-thrombin (F2, Homo sapiens, UniProt P00734)
# Setting: whole 15-mer aptamer, many near background
Modification,mean fluorescence intensity [a.u.]
2'F-ANA at 7 9 13,401
2'F-ANA at 2 3 4 5 10 13 14,47.3
2'F-ANA at 1 2 3 5 10 12 14 15,74.8
2'F-ANA at 4 6 7 11 13 14,78.9
2'F-ANA at 1 2 3 5 8 11 12 13 14 15,52.5
2'F-ANA at 2 5 6 8 15,76.2
2'F-ANA at 1 2 3 10 12 13 14 15,67.2
2'F-ANA at 1 2 3 6 7 8 10 11 12 13 15,79.8
2'F-ANA at 4 7 8 14,121

# Series 3 — technique: DHFR PCA, deep sequencing; sample: yeast; added: (+)-ABA 710 µM; relative to: wild-type fitted maximum; direction: higher = stronger binding
# Target: ABI1, truncated, D143A, DHFR fusion (Arabidopsis thaliana)
# Setting: methotrexate growth selection, single substitutions
# Starting sequence: PYL1, truncated, DHFR fusion (Arabidopsis thaliana); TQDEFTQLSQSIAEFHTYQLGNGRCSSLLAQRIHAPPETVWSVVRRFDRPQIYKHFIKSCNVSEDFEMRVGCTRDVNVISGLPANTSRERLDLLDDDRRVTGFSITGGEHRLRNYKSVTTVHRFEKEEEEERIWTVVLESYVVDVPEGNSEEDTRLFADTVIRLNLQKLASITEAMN
Change,relative binding score [%]
V44L,95.4
E130I,108
T119F,65.6
K126S,108
V76M,84.5
P83G,85.5
K54I,4.92
R88H,104
N61W,98.7

# Mixed results
Molecule,target,assay,test system,setting,how to read,endpoint,result
"PhoQ, residues 284 288 289 292 302 303 AMDMFI","PhoP, residues 12 14 15 18 19 VQGLL (Escherichia coli, UniProt P23836)","Sort-seq, measured: YFP reporter",E. coli,"PhoQ-PhoP variant library, added: 10 µM Mg2+","relative to: high Mg2+ state, higher = stronger signaling",fold induction,0.505

# Some of these lines once more (series 1):
Change,normalised enrichment score
L11A,0.0483
D10A,-0.286
